Results of several laboratories.
Every numbered part comes from another study and shows a few of its results, in no order. Substitutions count along the parent as printed.

Set 1 — method: RNA Bind-n-Seq; molecule type: RNA; sample: in vitro; tested at: 1 µM; setting: whole 134-nt RNA, ends assumed; added: 150 mM KCl; reference: input library; reading: higher = stronger binding
Target: Ras GTPase-activating protein-binding protein 1, RRM domain (G3BP1, Homo sapiens, UniProt Q13283)
UniProt Q13283, sequence (whole entry, looked up): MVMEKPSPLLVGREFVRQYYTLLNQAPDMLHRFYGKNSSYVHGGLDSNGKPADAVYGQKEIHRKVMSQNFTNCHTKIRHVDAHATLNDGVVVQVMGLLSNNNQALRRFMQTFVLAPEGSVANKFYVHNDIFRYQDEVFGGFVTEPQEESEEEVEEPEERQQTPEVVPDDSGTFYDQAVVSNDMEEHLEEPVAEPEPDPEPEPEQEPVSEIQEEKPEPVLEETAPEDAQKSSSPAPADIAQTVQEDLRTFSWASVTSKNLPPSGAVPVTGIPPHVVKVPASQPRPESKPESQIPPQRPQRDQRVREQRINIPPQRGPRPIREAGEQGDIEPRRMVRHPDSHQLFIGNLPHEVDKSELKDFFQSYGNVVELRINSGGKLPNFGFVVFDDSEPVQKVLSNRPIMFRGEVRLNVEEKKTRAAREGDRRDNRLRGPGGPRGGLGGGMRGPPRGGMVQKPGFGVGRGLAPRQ
The log2 enrichment of `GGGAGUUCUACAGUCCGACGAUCGUCCUGUGCUACACAUCGUAUGUACCGAAUCGGGGAAAAAGGGGUGGGGUUUUUGGGGAAAGUAUUAUGUUACGCCGUUCGGAUCUGCACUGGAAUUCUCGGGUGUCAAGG` is reported as 0.763.
For `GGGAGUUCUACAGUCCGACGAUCCAAGUCCUGUGCUACACAUCGUAUGUACCGAAUCGGGAAAGGGUGGGAAAAAGGGAAAGUAUUAUGUUACGCCGUUCGGAUCUGCACUUCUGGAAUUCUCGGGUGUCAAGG`, the log2 enrichment was 0.846.
`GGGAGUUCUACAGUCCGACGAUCGUCCUGUGCUACACAUCGUAUGUACCGAAUCGGGCCCCCGGGCCCCCGGGGCCCCCGGAAAGUAUUAUGUUACGCCGUUCGGAUCUGCACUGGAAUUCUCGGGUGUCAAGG` gave a log2 enrichment of -0.842.
With `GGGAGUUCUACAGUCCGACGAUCCAAGUCCUGUGCUACACAUCGUAUGUACCGAAUCGGAAAAAAAGGAGGAAAAAGGAAAGUAUUAUGUUACGCCGUUCGGAUCUGCACUUCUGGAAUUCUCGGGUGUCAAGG` the log2 enrichment was -0.13.
`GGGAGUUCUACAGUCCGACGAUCAAGUCCUGUGCUACACAUCGUAUGUACCGAAUCAAAUUUAAAUUUUUAAACCCAAAAAAGUAUUAUGUUACGCCGUUCGGAUCUGCACUUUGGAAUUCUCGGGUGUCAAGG` gave a log2 enrichment of -1.06.
The log2 enrichment of `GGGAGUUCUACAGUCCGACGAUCGUCCUGUGCUACACAUCGUAUGUACCGAAUCGGGAAAAAAAGGGUGGGAAAAAAAGGGAAAGUAUUAUGUUACGCCGUUCGGAUCUGCACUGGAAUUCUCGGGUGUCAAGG` is reported as 0.268.
For `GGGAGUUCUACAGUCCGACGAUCAAGUCCUGUGCUACACAUCGUAUGUACCGAAUCGGAAAAAAAGGUUUUUGGAAAGGAAAGUAUUAUGUUACGCCGUUCGGAUCUGCACUUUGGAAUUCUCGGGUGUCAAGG`, the log2 enrichment was -0.19.
For `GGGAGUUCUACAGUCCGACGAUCCUCAAGUCCUGUGCUACACAUCGUAUGUACCGAAUCGGGGAAGGAAGGGAAGGGAAAGUAUUAUGUUACGCCGUUCGGAUCUGCACUUCCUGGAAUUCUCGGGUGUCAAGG`, the log2 enrichment was -0.23.
`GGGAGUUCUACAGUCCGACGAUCAGUCCUGUGCUACACAUCGUAUGUACCGAAUCGGGUUUUUGGGUUUUUGGUUUUUGGGAAAGUAUUAUGUUACGCCGUUCGGAUCUGCACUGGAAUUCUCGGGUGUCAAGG` has a log2 enrichment of -0.256.
With `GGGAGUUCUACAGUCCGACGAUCUCAAGUCCUGUGCUACACAUCGUAUGUACCGAAUCGGUUGGGGUUGGGGUUGGGGAAAGUAUUAUGUUACGCCGUUCGGAUCUGCACUUCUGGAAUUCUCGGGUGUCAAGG` the log2 enrichment was 0.542.

Set 2 — method: protein binding microarray; molecule type: double-stranded DNA, one strand shown; sample: in vitro; tested at: not given; reference: not given; reading: higher = stronger binding
Target: Histone acetyltransferase KAT6A, winged helix 1, GST fusion (KAT6A, Homo sapiens, UniProt Q92794, residues 1-85)
Setting: 8-mer, flanks averaged, mean of 2 arrays, mostly near background
Construct (chain): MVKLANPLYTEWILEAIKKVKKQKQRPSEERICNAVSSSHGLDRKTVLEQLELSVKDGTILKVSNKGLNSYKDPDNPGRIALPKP
`CTGGAGTA` gave an E-score of -0.0755.
With `ATAAAAGA` the E-score was 0.0439.
The E-score of `GTGATTCA` is reported as -0.232.
`GCCGCTGA` gave an E-score of 0.338.
With `AAAGTAGT` the E-score was -0.112.
`GGAGCGTA` has an E-score of 0.191.
With `GCTCGCGA` the E-score was 0.165.
For `AGGCAATG`, the E-score was -0.189.
`GCACTTGA` gave an E-score of 0.0383.
For `ATTAACTG`, the E-score was -0.208.
The E-score of `GAGGGTGC` is reported as -0.0544.
`CTTAGTGC` has an E-score of -0.2.
With `ATCTTCGC` the E-score was 0.014.
`CACATTTC` gave an E-score of -0.103.
With `CGAAGAGC` the E-score was 0.244.
For `AGCGGGGA`, the E-score was 0.218.
With `CGAATTGA` the E-score was -0.167.
For `CAGCTCAA`, the E-score was -0.265.
`CGAGAAGA` gave an E-score of -0.137.
With `AGTACGTA` the E-score was -0.0808.

Set 3 — target: FOS, bZIP domain (human); method: DHFR protein complementation; sample: yeast; reference: wild-type JUN-FOS pair; reading: higher = stronger binding
Setting: single substitutions, most at no-binding floor
Starting sequence: JUN, bZIP domain (human); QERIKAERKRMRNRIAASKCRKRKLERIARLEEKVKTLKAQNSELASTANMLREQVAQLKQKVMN; partner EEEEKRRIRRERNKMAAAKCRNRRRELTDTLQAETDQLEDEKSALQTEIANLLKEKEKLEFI
`A40K` gave a binding fitness of 0.0868 natural log.
The binding fitness of `N42W` is reported as -1.25 natural log.
For `M51I`, the binding fitness was -0.00303 natural log.
`K36D` has a binding fitness of -0.116 natural log.
For `S47M`, the binding fitness was 0.0118 natural log.
The binding fitness of `V56H` is reported as -0.935 natural log.
With `E44D` the binding fitness was -0.221 natural log.
`L45E` gave a binding fitness of -1.34 natural log.
With `R53L` the binding fitness was -0.885 natural log.
With `A49P` the binding fitness was -1.27 natural log.
`N42H` gave a binding fitness of -0.765 natural log.
The binding fitness of `M51V` is reported as -0.0618 natural log.
The binding fitness of `Q55K` is reported as -0.0601 natural log.
`E33W` gave a binding fitness of -0.333 natural log.
With `T48E` the binding fitness was -0.186 natural log.
With `K34M` the binding fitness was -0.186 natural log.
`T48Y` gave a binding fitness of 0.0726 natural log.
`S43R` gave a binding fitness of 0.0936 natural log.

Set 4 — target: CCND1, cyclin fold, Cln2 fusion (human); method: yeast growth competition, sequencing; sample: yeast; setting: weak parent motif; reference: not given; reading: higher = stronger binding
Starting sequence: EXO1 docking peptide (human); KPECGRVQRAIFQ
`KPECGRVARAIFQ [Q8A]`: “normalised enrichment score” 0.46.
`KPECGRVQAAIFQ [R9A]`: “normalised enrichment score” 0.00886.
Under “normalised enrichment score”, `KPECGRAQRAIFQ [V7A]` is recorded as 0.372.
For `APECGRVQRAIFQ [K1A]`, “normalised enrichment score” read -0.0914.
For `KAECGRVQRAIFQ [P2A]`, “normalised enrichment score” read 0.169.
For `KPECGRVQRAIFA [Q13A]`, “normalised enrichment score” read 0.126.

Set 5 — method: universal PBM; molecule type: double-stranded DNA, one strand shown; sample: in vitro; tested at: not given; reading: higher = stronger binding
Target: Sal-like protein 4, full length isoform B (SALL4, Homo sapiens, UniProt Q9UJQ4-2, residues 1-616)
Setting: 8-mer, flanks averaged, mean of replicates
Target sequence (chain): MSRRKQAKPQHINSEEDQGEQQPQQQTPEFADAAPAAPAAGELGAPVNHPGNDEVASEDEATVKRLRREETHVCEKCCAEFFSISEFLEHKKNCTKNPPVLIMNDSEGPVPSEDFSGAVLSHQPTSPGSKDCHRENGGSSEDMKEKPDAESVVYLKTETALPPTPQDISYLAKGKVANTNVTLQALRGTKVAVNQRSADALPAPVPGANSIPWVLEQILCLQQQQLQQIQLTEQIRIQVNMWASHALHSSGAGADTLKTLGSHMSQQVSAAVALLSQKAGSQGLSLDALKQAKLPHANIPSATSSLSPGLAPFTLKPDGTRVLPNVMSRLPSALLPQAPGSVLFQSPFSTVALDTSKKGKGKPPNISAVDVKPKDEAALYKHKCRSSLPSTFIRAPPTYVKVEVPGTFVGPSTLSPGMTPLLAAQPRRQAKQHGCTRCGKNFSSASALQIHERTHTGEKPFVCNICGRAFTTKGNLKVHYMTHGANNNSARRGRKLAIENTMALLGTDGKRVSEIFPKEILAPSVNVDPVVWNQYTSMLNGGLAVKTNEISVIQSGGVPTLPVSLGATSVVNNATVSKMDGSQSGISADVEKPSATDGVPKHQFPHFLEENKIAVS
With `AGTCAATG` the E-score was 0.0649.
With `AGACATTA` the E-score was 0.158.
For `GATTCCAC`, the E-score was 0.0398.
For `AACACCCT`, the E-score was -0.106.
The E-score of `CTGCGTGA` is reported as -0.0895.
With `CGTGCAGA` the E-score was -0.0773.
`ACCTTGCT` gave an E-score of -0.147.
The E-score of `ACGCTACG` is reported as -0.0137.
`AAACCAAT` has an E-score of 0.232.
With `CTGTGCCA` the E-score was -0.164.
With `GCGGGTTA` the E-score was -0.17.
The E-score of `GACATACC` is reported as -0.102.
With `AAAGCGAA` the E-score was 0.121.
For `ACAGTTAT`, the E-score was 0.294.
For `AGCGCATA`, the E-score was 0.186.
For `AACAGGCA`, the E-score was 0.0511.
`ATAGGTTC` has an E-score of 0.179.
`TAGGTGCA` gave an E-score of -0.0644.

Set 6 — method: DHFR PCA, deep sequencing; sample: yeast; added: (+)-ABA 0.11 µM; reference: wild-type fitted maximum; reading: higher = stronger binding
Target: ABI1, truncated, D143A, DHFR fusion (Arabidopsis thaliana)
Setting: methotrexate growth selection, single substitutions
Starting sequence: PYL1, truncated, DHFR fusion (Arabidopsis thaliana); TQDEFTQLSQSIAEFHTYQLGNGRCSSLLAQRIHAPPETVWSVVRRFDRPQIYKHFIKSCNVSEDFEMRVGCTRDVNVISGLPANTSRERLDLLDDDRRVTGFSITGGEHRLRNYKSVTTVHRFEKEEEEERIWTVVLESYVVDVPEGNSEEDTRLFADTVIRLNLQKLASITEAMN; partner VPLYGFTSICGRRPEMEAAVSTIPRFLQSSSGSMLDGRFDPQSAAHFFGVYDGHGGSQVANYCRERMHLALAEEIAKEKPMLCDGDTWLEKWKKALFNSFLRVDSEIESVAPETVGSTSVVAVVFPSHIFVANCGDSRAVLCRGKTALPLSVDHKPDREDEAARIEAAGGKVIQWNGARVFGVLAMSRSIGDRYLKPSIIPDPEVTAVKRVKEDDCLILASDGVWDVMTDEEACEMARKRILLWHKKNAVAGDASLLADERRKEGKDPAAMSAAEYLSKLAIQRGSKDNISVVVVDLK
For `I162F`, “relative binding score” read -19.2%.
Under “relative binding score”, `W41H` is recorded as -9.14%.
`W134T`: “relative binding score” 44.6%.
`V136Y` — result for “relative binding score”: 3.18%.
`G81K`: “relative binding score” 0.854%.
`I33R`: “relative binding score” 1.22%.
`D159P`: “relative binding score” -5.72%.
Under “relative binding score”, `I162G` is recorded as 5.52%.
`R46D` — result for “relative binding score”: -5.3%.
Under “relative binding score”, `W134S` is recorded as 43.7%.
For `V142C`, “relative binding score” read 34.6%.
`R90T` — result for “relative binding score”: 3.55%.
`V43N` — result for “relative binding score”: -5.6%.
`S59T`: “relative binding score” 20.4%.
Under “relative binding score”, `L82Y` is recorded as 49.2%.

Set 7 — method: Sort-seq; refers to: YFP reporter; sample: E. coli; setting: PhoQ-PhoP variant library; added: 10 µM Mg2+; reference: high Mg2+ state; reading: higher = stronger signaling
Molecule: PhoQ, residues 284 288 289 292 302 303 TTSMTC
For PhoP, residues 12 14 15 18 19 TQCLL (Escherichia coli, UniProt P23836): fold induction read 14.7.
The fold induction was 14.2 (PhoP, residues 12 14 15 18 19 ICWRQ (Escherichia coli, UniProt P23836)).
For PhoP, residues 12 14 15 18 19 VHTVL (Escherichia coli, UniProt P23836): fold induction read 6.61.

Mixed results — method: cross-linking MS; sample: cell fractions
`TPR (Homo sapiens, UniProt P12270)` — result for cross-linked residues: “K494 to K353” (NUP153 (Homo sapiens, UniProt P49790); added: DSSO).
`VN1R2 (Homo sapiens, UniProt Q8NFZ6)` — result for cross-linked residues: “D125 to K9” (H4C7 (Homo sapiens, UniProt Q99525); added: DMTMM).
For `HBP1 (Homo sapiens, UniProt O60381)`, cross-linked residues read “E478 to D108” (ERMP1 (Homo sapiens, UniProt Q7Z2K6); added: DHSO).
Under cross-linked residues, `PTBP1 (Homo sapiens, UniProt P26599)` is recorded as “K436 to K405” (HNRNPK (Homo sapiens, UniProt P61978); added: DSSO).

A few entries again (mixed results):
Under cross-linked residues, `PTBP1 (Homo sapiens, UniProt P26599)` is recorded as “K436 to K405” (HNRNPK (Homo sapiens, UniProt P61978); added: DSSO).
`VN1R2 (Homo sapiens, UniProt Q8NFZ6)` — result for cross-linked residues: “D125 to K9” (H4C7 (Homo sapiens, UniProt Q99525); added: DMTMM).
For `HBP1 (Homo sapiens, UniProt O60381)`, cross-linked residues read “E478 to D108” (ERMP1 (Homo sapiens, UniProt Q7Z2K6); added: DHSO).
`TPR (Homo sapiens, UniProt P12270)` — result for cross-linked residues: “K494 to K353” (NUP153 (Homo sapiens, UniProt P49790); added: DSSO).
